Results gathered from unrelated publications.
Numbered parts are unrelated; each lists some results of a single study. Positions count from the first letter of the parent shown.

Block 1 — method: protein-binding microarray; form: double-stranded DNA, one strand shown; matrix: in vitro; tested at: 940 nM top; setting: 60-bp whole probe; with: salmon DNA 0.4 mg/ml; relative to: random background probes; reading: higher = stronger binding; all sequences stand within: GCCTAGCAC … GTCTTGATTCGCTTGACGCTGCTG
Target: Interferon regulatory factor 5, full length, phosphomimetic (IRF5, Homo sapiens, UniProt Q13568-2, residues 1-514, S451D/S453D/S456D/S462D)
Sequence	fitted relative affinity [z-score]
GACGGTATCAGTCTCGAGACGTGCTAG	3.63
TTGGGTATCGGGTATCGGTTAGTGCTA	6.72
TTAGGTTTCGGTTCAGGTTAGTGCTAG	15.4
GACGGTCTCCTTTTCTTGACGTGCTAG	1.06
GACCATTTCAGACTGGAGACGTGCTAG	-0.131
GACGGACTGGGAATGGGGACGTGCTAG	-0.312
TCAAGTTTATTTATTTTACTGTGCTAG	0.108

Block 2 — method: RNA Bind-n-Seq; form: RNA; matrix: in vitro; tested at: 200 nM; setting: whole 134-nt RNA, ends assumed; with: 150 mM LiCl; relative to: input library; reading: higher = stronger binding; all molecules: 7-deaza-guanosine replaces G
Target: Fragile X messenger ribonucleoprotein 1, C-terminal low-complexity region (Fmr1, Mus musculus, UniProt P35922)
Sequence	log2 enrichment
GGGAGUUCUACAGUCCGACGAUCUUGGAAGAGACCAGUGAAAUUCGAUCUGACUUGGAGCAGUUAGACCACGAGGUUAAGGAGGCUCAGACACUGUGCGAUGAACUCUCAGUGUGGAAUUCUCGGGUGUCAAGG	-0.36
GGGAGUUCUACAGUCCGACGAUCUAACUUUAGAGGAGGAUCUGAUGGAUAUGGCAGUGGACGUGGAUCUGGGGAUGGCUAUAAUGGGUAUGGAGGAGGACCUGGAGGUGGCAAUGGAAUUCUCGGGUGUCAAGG	-0.2
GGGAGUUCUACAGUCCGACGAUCUGGCCCUGGUGGCAUGCGGGGAGGUAGAGGUGGCCUCAUGGAUCGUGGUGGUCCCGGUGGAAUGUUCAGAGGUGGCCGUGGUGGAGACAGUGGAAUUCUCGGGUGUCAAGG	-0.294
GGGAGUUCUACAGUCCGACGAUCUGGGAGGUGGAUUUUGUUUAUUUUUUUAGCUCAUUUCCAGGGGUGGGAAUUUUUUUUUAAUAUGUGUCAUGAAUAAGGUUGUUUUUGAAAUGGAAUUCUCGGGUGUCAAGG	0.218
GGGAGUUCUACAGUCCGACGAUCAGUCCUGUGCUACACAUCGUAUGUACCGAAUCAAAGUGUGUGUGUGUGUGUGUGUAAAAAAGUAUUAUGUUACGCCGUUCGGAUCUGCACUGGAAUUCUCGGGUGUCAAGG	-0.89
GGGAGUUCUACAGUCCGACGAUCGCAGGAAGUAAAAACAAAUGGAAAUGCUUCGGAUAGUGGCAGGGGUGGGGGUGGCUAAGGAAAGGGUGGGAUGGGAGUGGGUAAAGAGUUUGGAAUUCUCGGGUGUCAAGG	1.43
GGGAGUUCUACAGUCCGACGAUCCUGUGCUACACAUCGUAUGUACCGAAUCGGGAAAAAAAGGAAAAAAAGGGAAAAAAAGGGGAAAGUAUUAUGUUACGCCGUUCGGAUCUGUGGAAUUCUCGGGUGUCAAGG	0.0377
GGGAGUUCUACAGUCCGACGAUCAAGUCCUGUGCUACACAUCGUAUGUACCGAAUCGGAAAAAAAGGAAAGGUUUUUGGAAAGUAUUAUGUUACGCCGUUCGGAUCUGCACUUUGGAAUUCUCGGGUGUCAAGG	-2.65
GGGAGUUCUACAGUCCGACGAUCUGGUAAGAAAUCUGCUUGUUUUAUUAAAAUGCUUAAUUGAAGAAAAUAAUAUUCUUCUGUGAUUAAAAUUAGGAAGAAAUAGAACCAUUUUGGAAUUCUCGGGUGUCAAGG	-2.43
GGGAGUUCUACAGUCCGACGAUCAAGUCCUGUGCUACACAUCGUAUGUACCGAAUCGGGGUUUGGGGUUUGGGGUUUGGGAAAGUAUUAUGUUACGCCGUUCGGAUCUGCACUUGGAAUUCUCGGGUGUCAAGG	-1.39

Block 3 — target: CCNA2, cyclin fold, Cln2 fusion (human); method: yeast growth competition, sequencing; matrix: yeast; setting: strong parent motif; relative to: not given; reading: higher = stronger binding
Parent: CDC6 docking peptide (human); TLKGRRLVFDNQL; partner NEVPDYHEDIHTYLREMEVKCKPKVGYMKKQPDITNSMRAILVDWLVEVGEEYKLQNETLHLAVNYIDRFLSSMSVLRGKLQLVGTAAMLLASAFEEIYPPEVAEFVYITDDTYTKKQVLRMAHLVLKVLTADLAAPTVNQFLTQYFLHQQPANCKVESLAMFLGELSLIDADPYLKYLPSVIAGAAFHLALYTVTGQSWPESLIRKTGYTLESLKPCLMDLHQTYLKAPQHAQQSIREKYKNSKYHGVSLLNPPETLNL
Variant	normalised enrichment score
TLKGRRLVFDNNL [Q12N]	3.49
TLKGRRLVFDNLL [Q12L]	3.41
TLKTRRLVFDNQL [G4T]	1.23
TLKGRRLVFDNQF [L13F]	3.17
TLKGRRLVFQNQL [D10Q]	0.907
TLKGRRLWFDNQL [V8W]	2.36

Other studies, line by line
Substance	target	test	system	conditions	how to read	endpoint	value
PhoQ, residues 284 288 289 292 302 303 TNASYF	PhoP, residues 12 14 15 18 19 SMASL (Escherichia coli, UniProt P23836)	Sort-seq, item: YFP reporter	E. coli	PhoQ-PhoP variant library, with: 10 µM Mg2+	relative to: high Mg2+ state, higher = stronger signaling	fold induction	3.87

A few entries again (block 1):
Sequence	fitted relative affinity [z-score]
GACGGACTGGGAATGGGGACGTGCTAG	-0.312
TCAAGTTTATTTATTTTACTGTGCTAG	0.108
